Results collected from several papers.
Compare with care: the assays were run in different laboratories. Numbers after ± are the reported error.
ADCYAP1R1: Pituitary adenylate cyclase-activating polypeptide type I receptor (ADCYAP1R1, Homo sapiens, UniProt P41586)
Sequence of UniProt P41586 (whole entry, looked up): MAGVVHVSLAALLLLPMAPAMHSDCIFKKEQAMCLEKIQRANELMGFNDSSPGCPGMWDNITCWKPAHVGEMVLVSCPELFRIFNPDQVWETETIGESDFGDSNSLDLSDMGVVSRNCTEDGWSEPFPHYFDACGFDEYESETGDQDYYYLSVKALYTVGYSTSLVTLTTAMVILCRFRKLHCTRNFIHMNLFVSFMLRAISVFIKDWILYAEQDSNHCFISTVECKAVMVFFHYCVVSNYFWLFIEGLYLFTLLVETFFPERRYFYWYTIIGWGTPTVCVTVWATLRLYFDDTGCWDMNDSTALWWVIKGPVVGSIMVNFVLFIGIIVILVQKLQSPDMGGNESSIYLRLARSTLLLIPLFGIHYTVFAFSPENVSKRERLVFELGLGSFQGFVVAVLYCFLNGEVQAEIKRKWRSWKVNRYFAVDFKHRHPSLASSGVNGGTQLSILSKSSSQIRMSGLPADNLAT
sdiA: Regulatory protein SdiA (sdiA, Escherichia coli, UniProt P07026)
Sequence of UniProt P07026 (whole entry, looked up): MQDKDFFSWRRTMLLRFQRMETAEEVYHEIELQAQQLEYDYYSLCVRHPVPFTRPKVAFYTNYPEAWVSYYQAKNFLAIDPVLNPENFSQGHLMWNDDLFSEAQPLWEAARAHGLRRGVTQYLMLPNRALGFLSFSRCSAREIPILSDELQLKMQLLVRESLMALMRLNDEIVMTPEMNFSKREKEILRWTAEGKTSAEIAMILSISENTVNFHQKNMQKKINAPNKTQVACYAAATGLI
Sequence of UniProt P50391 (whole entry, looked up): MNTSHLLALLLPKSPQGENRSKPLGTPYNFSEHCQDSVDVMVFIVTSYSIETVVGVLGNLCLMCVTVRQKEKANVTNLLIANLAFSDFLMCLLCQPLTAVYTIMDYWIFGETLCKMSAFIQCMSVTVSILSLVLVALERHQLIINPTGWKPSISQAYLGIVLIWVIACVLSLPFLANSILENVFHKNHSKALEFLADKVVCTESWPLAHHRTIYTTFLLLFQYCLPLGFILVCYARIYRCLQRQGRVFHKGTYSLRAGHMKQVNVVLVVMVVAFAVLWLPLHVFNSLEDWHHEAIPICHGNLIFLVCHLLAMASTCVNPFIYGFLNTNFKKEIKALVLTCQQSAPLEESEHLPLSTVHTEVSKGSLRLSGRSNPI
Sequence of UniProt Q8BZ39 (whole entry, looked up): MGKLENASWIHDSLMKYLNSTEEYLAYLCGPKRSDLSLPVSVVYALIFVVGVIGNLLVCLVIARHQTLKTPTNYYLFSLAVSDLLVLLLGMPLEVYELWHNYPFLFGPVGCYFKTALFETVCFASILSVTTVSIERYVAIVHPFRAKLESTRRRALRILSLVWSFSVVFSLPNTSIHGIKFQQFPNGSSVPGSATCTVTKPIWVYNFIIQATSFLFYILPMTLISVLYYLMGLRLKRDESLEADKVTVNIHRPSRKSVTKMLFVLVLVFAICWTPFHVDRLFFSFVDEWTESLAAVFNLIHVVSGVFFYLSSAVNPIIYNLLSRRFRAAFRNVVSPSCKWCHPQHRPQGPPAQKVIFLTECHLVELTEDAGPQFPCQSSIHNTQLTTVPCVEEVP
Sequence of UniProt P33535 (whole entry, looked up): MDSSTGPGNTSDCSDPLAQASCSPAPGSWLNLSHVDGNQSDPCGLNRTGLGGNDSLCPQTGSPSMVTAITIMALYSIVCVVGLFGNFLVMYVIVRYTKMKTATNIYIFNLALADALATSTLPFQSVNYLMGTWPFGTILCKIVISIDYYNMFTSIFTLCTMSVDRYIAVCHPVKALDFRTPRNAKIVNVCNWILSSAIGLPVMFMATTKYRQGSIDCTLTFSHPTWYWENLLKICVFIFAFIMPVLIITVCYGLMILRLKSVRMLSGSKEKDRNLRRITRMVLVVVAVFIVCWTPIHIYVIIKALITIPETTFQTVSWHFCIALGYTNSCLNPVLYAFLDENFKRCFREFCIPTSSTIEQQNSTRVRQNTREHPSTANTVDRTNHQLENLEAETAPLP
Sequence of UniProt P41143 (whole entry, unmodified, looked up): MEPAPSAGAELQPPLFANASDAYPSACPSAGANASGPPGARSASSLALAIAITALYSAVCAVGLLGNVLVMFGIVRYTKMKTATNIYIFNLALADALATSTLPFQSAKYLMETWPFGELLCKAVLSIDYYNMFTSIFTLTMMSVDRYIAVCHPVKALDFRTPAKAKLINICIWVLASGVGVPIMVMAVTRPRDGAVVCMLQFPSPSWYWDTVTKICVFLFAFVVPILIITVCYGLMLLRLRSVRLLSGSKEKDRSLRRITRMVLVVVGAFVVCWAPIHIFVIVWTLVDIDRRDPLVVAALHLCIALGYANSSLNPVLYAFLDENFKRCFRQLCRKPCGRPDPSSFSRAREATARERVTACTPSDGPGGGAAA
Sequence of UniProt Q2FDS6 (whole entry, looked up): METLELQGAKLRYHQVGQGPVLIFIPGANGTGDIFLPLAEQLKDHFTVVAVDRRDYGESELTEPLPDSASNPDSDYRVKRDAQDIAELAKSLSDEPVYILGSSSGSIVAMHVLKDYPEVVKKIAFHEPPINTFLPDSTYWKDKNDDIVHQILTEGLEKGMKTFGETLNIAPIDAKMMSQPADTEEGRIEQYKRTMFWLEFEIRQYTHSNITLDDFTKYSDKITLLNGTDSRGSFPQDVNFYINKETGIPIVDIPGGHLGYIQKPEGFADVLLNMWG

| SMILES | target | test | system | conditions | endpoint | result |
| --- | --- | --- | --- | --- | --- | --- |
| CCCCCCCCCCCCCCCCCC(=O)NC[C@H]1CC[C@H](C(=O)N[C@@H](CCC(=O)NCCCOCCOCCOCCCNC(=O)COCC(=O)N[C@@H](Cc2ccc(O)cc2)C(=O)NC(C)(Cc2ccccc2)C(=O)N[C@@H](CC(C)C)C(=O)N[C@@H](CCCC)C(=O)N[C@@H](CCCNC(=N)N)C(=O)N2CCC[C@H]2C(=O)N[C@@H](CCCNC(=N)NC)C(=O)N[C@@H](CC(N)=O)C(N)=O)C(=O)O)CC1 (some centres unmarked) | Neuromedin-U receptor 2 (Mus musculus, UniProt Q8BZ39) | inositol phosphate, agonist | – | – | EC50 | 0.933 nM |
| CSCC[C@H](NC(=O)[C@H](CCC(N)=O)NC(=O)[C@H](CCCCN)NC(=O)[C@H](CCCNC(=N)N)NC(=O)[C@H](Cc1ccc(O)cc1)NC(=O)[C@H](CCCNC(=N)N)NC(=O)[C@H](CO)NC(=O)[C@H](Cc1ccc(O)cc1)NC(=O)[C@H](CO)NC(=O)[C@H](CC(=O)O)NC(=O)[C@@H](NC(=O)[C@@H](N)Cc1ccccc1)[C@@H](C)O)C(=O)N[C@@H](C)C(=O)N[C@H](C(=O)N[C@@H](CCCCN)C(=O)N[C@@H](CCCCn1cc(C[C@H](NC(=O)CNC(=O)[C@H](CO)NC(=O)[C@H](CCCNC(=N)N)NC(=O)[C@H](CO)NC(=O)[C@H](CC(C)C)NC(=O)[C@H](CC(C)C)NC(=O)CNC(=O)[C@H](C)NC(=O)[C@H](CC(C)C)NC(=O)[C@H](CCCNC(=N)N)NC(=O)[C@H](Cc2c[nH]cn2)NC(=O)[C@@H](NC(=O)[C@@H](N)C(C)C)[C@@H](C)O)C(=O)N[C@H](C(=O)N[C@H](C(=O)N[C@@H](CCCCN)C(=O)N[C@@H](CC(N)=O)C(=O)N[C@@H](CC(N)=O)C(=O)N[C@@H](Cc2ccccc2)C(=O)N[C@H](C(=O)N2CCC[C@H]2C(=O)N[C@H](C(=O)N[C@@H](CC(N)=O)C(=O)N[C@H](C(=O)NCC(=O)N[C@@H](CO)C(=O)N[C@@H](CCCCN)C(=O)N[C@@H](C)C(=O)N[C@@H](Cc2ccccc2)C(N)=O)C(C)C)[C@@H](C)O)C(C)C)C(C)C)C(C)C)nn1)C(=O)N[C@@H](Cc1ccc(O)cc1)C(=O)N[C@@H](CC(C)C)C(=O)N[C@@H](C)C(=O)N[C@@H](C)C(=O)N[C@H](C(=O)N[C@@H](CC(C)C)C(=O)NCC(=O)N[C@@H](CCCCN)C(=O)N[C@@H](CCCNC(=N)N)C(=O)N[C@@H](Cc1ccc(O)cc1)C(=O)N[C@@H](CCCCN)C(=O)N[C@@H](CCC(N)=O)C(=O)N[C@@H](CCCNC(=N)N)C(=O)N[C@H](C(=O)N[C@@H](CCCCN)C(=O)N[C@@H](CC(N)=O)C(=O)N[C@@H](CCCCN)C(N)=O)C(C)C)C(C)C)C(C)C | ADCYAP1R1 | cAMP, antagonist | – | – | Kb | > 10000 nM |
| CCCCCC(O)CC(=O)N[C@H]1CCOC1=O (some centres unmarked) | sdiA | – | – | – | EC50 | 8.95 nM |
| COc1cc(OC)cc(B(O)O)c1 | Uncharacterized hydrolase SAUSA300_2518 (Staphylococcus aureus, UniProt Q2FDS6) | enzyme activity, inhibitor | – | – | Ki | 137 nM |
| CC(=O)N[C@@H](CCCNC(=N)N)C(=O)N[C@@H](Cc1ccc(O)cc1)C(=O)N[C@H]1CCCNC(=N)NC(=O)NCCCCNC(=O)[C@H](Cc2ccc(O)cc2)NC(=O)[C@H](CCCNC(=N)N)NC(=O)[C@H](CC(C)C)NC1=O | NPY4R (Homo sapiens, UniProt P50391) | β-arrestin-1 recruitment, antagonist | HEK293T-ARRB1 | with: 3 nM human pancreatic polypeptide | Kb | 2920 ± 880 nM |
| CSCC[C@@H]1NC(=O)[C@H](Cc2ccccc2)NC(=O)[C@@H](NC(=O)[C@H](C)N)CSC(=O)[C@H](C(C)C)NC(=O)[C@@H](Cc2ccccc2)NC1=O | Histidine kinase AgrC (Listeria monocytogenes, UniProt A8E0G3) | – | – | – | EC50 | 2180 nM |
| CSCC[C@H](NC(=O)[C@H](CCC(N)=O)NC(=O)[C@H](CCCCN)NC(=O)[C@H](CCCNC(=N)N)NC(=O)[C@H](Cc1ccc(O)cc1)NC(=O)[C@H](CCCNC(=N)N)NC(=O)[C@H](CO)NC(=O)[C@H](Cc1ccc(O)cc1)NC(=O)[C@H](CO)NC(=O)[C@H](CC(=O)O)NC(=O)[C@@H](NC(=O)[C@@H](N)Cc1ccccc1)[C@@H](C)O)C(=O)N[C@@H](C)C(=O)N[C@H](C(=O)N[C@@H](CCCCN)C(=O)N[C@@H](CCCCN)C(=O)N[C@@H](Cc1ccc(O)cc1)C(=O)N[C@@H](CC(C)C)C(=O)N[C@@H](C)C(=O)N[C@@H](C)C(=O)N[C@H](C(=O)N[C@@H](CC(C)C)C(=O)NCC(=O)N[C@@H](CCCCN)C(=O)N[C@@H](CCCNC(=N)N)C(=O)N[C@@H](Cc1ccc(O)cc1)C(=O)N[C@@H](CCCCN)C(=O)N[C@@H](CCC(N)=O)C(=O)N[C@@H](CCCCn1cc(C[C@H](NC(=O)CNC(=O)[C@H](CO)NC(=O)[C@H](CCCNC(=N)N)NC(=O)[C@H](CO)NC(=O)[C@H](CC(C)C)NC(=O)[C@H](CC(C)C)NC(=O)CNC(=O)[C@H](C)NC(=O)[C@H](CC(C)C)NC(=O)[C@H](CCCNC(=N)N)NC(=O)[C@H](Cc2c[nH]cn2)NC(=O)[C@@H](NC(=O)[C@@H](N)C(C)C)[C@@H](C)O)C(=O)N[C@H](C(=O)N[C@H](C(=O)N[C@@H](CCCCN)C(=O)N[C@@H](CC(N)=O)C(=O)N[C@@H](CC(N)=O)C(=O)N[C@@H](Cc2ccccc2)C(=O)N[C@H](C(=O)N2CCC[C@H]2C(=O)N[C@H](C(=O)N[C@@H](CC(N)=O)C(=O)N[C@H](C(=O)NCC(=O)N[C@@H](CO)C(=O)N[C@@H](CCCCN)C(=O)N[C@@H](C)C(=O)N[C@@H](Cc2ccccc2)C(N)=O)C(C)C)[C@@H](C)O)C(C)C)C(C)C)C(C)C)nn1)C(=O)N[C@H](C(=O)N[C@@H](CCCCN)C(=O)N[C@@H](CC(N)=O)C(=O)N[C@@H](CCCCN)C(N)=O)C(C)C)C(C)C)C(C)C | ADCYAP1R1 | cAMP accumulation, antagonist | – | with: PACAP-27 | Kb | 389 nM |
| Cc1cc(O)cc(C)c1C[C@H](N)C(=O)N[C@H](CCCNC(=N)N)C(=O)N[C@@H](Cc1ccccc1)C(=O)N[C@@H](CCCCN)C(=O)N[C@H]1CC[C@H](NC(=O)[C@H](Cc2ccccc2)NC(=O)[C@H](CC2CCCCC2)NC[C@@H]2Cc3ccccc3CN2C(=O)[C@@H](N)Cc2ccc(O)cc2)CC1 | Oprm1 (Rattus norvegicus, UniProt P33535) | ligand displacement, radioligand | – | cell membranes | Ki | 7.87 nM |
| COc1cccc(CC(=O)N[C@H]2CCOC2=O)c1 | sdiA | – | – | – | EC50 | 1.42 nM |
| Cc1cc(O)cc(C)c1C[C@H](N)C(=O)N[C@H](CCCNC(=N)N)C(=O)N[C@@H](Cc1ccccc1)C(=O)N(C)CC(=O)N(C)Cc1cc(C(F)(F)F)cc(C(F)(F)F)c1 | OPRD1 (Homo sapiens, UniProt P41143, K108D) | – | – | – | Ki | 1.17 ± 0.68 nM |
| CSCC[C@H](NC(=O)[C@H](CCC(N)=O)NC(=O)[C@H](CCCCN)NC(=O)[C@H](CCCNC(=N)N)NC(=O)[C@H](Cc1ccc(O)cc1)NC(=O)[C@H](CCCNC(=N)N)NC(=O)[C@H](CO)NC(=O)[C@H](Cc1ccc(O)cc1)NC(=O)[C@H](CO)NC(=O)[C@H](CC(=O)O)NC(=O)[C@@H](NC(=O)[C@@H](N)Cc1ccccc1)[C@@H](C)O)C(=O)N[C@@H](C)C(=O)N[C@H](C(=O)N[C@@H](CCCCN)C(=O)N[C@@H](CCCCN)C(=O)N[C@@H](Cc1ccc(O)cc1)C(=O)N[C@@H](CC(C)C)C(=O)N[C@@H](C)C(=O)N[C@@H](C)C(=O)N[C@H](C(=O)N[C@@H](CC(C)C)C(=O)NCC(=O)N[C@@H](CCCCN)C(=O)N[C@@H](CCCNC(=N)N)C(=O)N[C@@H](Cc1ccc(O)cc1)C(=O)N[C@@H](CCCCN)C(=O)N[C@@H](CCC(N)=O)C(=O)N[C@@H](CCCNC(=N)N)C(=O)N[C@H](C(=O)N[C@@H](CCCCN)C(=O)N[C@@H](CC(N)=O)C(=O)N[C@@H](CCCCn1cc(C[C@H](NC(=O)CNC(=O)[C@H](CO)NC(=O)[C@H](CCCNC(=N)N)NC(=O)[C@H](CO)NC(=O)[C@H](CC(C)C)NC(=O)[C@H](CC(C)C)NC(=O)CNC(=O)[C@H](C)NC(=O)[C@H](CC(C)C)NC(=O)[C@H](CCCNC(=N)N)NC(=O)[C@H](Cc2c[nH]cn2)NC(=O)[C@@H](NC(=O)[C@@H](N)C(C)C)[C@@H](C)O)C(=O)N[C@H](C(=O)N[C@H](C(=O)N[C@@H](CCCCN)C(=O)N[C@@H](CC(N)=O)C(=O)N[C@@H](CC(N)=O)C(=O)N[C@@H](Cc2ccccc2)C(=O)N[C@H](C(=O)N2CCC[C@H]2C(=O)N[C@H](C(=O)N[C@@H](CC(N)=O)C(=O)N[C@H](C(=O)NCC(=O)N[C@@H](CO)C(=O)N[C@@H](CCCCN)C(=O)N[C@@H](C)C(=O)N[C@@H](Cc2ccccc2)C(N)=O)C(C)C)[C@@H](C)O)C(C)C)C(C)C)C(C)C)nn1)C(N)=O)C(C)C)C(C)C)C(C)C | ADCYAP1R1 | cAMP, antagonist | – | – | Kb | > 10000 nM |

Some of these lines once more:
| SMILES | target | test | system | conditions | endpoint | result |
| --- | --- | --- | --- | --- | --- | --- |
| CC(=O)N[C@@H](CCCNC(=N)N)C(=O)N[C@@H](Cc1ccc(O)cc1)C(=O)N[C@H]1CCCNC(=N)NC(=O)NCCCCNC(=O)[C@H](Cc2ccc(O)cc2)NC(=O)[C@H](CCCNC(=N)N)NC(=O)[C@H](CC(C)C)NC1=O | NPY4R (Homo sapiens, UniProt P50391) | β-arrestin-1 recruitment, antagonist | HEK293T-ARRB1 | with: 3 nM human pancreatic polypeptide | Kb | 2920 ± 880 nM |
